Published values pooled from the literature.

For `C=CC(=O)Nc1cc(Nc2nccc(Nc3cc(Cl)c(F)cc3C(C)(C)O)n2)c(OC)cc1N1CC[C@@H](N(C)C)C1`, “patients with lipase increased” read 0% (human patients; oral, 50 mg, treatment-emergent adverse events).
For `CO[C@H]1C[C@@H]2CC[C@@H](C)[C@@](O)(O2)C(=O)C(=O)N2CCCC[C@H]2C(=O)O[C@H]([C@H](C)C[C@@H]2CC[C@@H](OC(=O)NCCOCCOCCOCCOCCOCCOCCOCCOCCC(=O)N3CCc4cc(Cn5nc(-c6ccc7oc(N)nc7c6)c6c(N)ncnc65)ccc4C3)[C@H](OC)C2)C[C@@H](O)[C@H](C)/C=C(\C)[C@@H](O)[C@@H](OC)C(=O)[C@H](C)C[C@H](C)/C=C/C=C/C=C/1C`, “Neutropenia AE leading to dose reduction” read 0% (patients with advanced solid tumours; intravenous, 1.6 mg/3 mg weekly, grade ≥3).
`C[C@]1(CO)Cc2ncn(-c3ccc(C#N)c(Cl)c3)c2C(=O)O1` — result for “half-life at steady state”: 5.5 h (human, plasma; 80 mg once daily, fasted).
`CCC[C@@](N)(CO)CCc1ccc(OCCCCCC(C)C)cc1` gave an AUC(0-inf) of 7.43 µM·h (dog, male hounds, plasma; oral capsule, 5 mg/kg, geometric mean).
Under “incidence of pleural effusion”, `Cc1cc(C)c(CNC(=O)c2cc(Cl)c3c(c2C)O[C@@](C)([C@H]2CC[C@H](N(C)C)CC2)O3)c(=O)[nH]1` is recorded as 0% (relapsed/refractory NHL patients; dose not given, trial, safety set, all TEAEs grade 5).
For `COc1ccc2nc3cc(Cl)ccc3c(Nc3cc(CN4CCCC4)c(O)c(CN4CCCC4)c3)c2n1`, “platelet distribution width” read 15.6% (mouse, blood; intraperitoneal, 28 mg/kg).
`COc1ccnc(C(=O)N[C@H]2COC(=O)[C@H](Cc3ccccc3)[C@@H](OC(=O)C(C)C)[C@H](C)OC2=O)c1OCOC(=O)C(C)C`: “Freundlich coefficient KF” 20.3 mL/g (soil adsorption; soil; pH 5.9, organic carbon 0.9 %).
Under “subjects with Hypoaesthesia adverse event”, `O=C(Nc1ccccc1)C1CCN(C(=O)Oc2cccnc2)CC1` is recorded as 0% (adverse event reporting; healthy women; oral, 100 mg).
For `CN1CC[C@@H](c2c(O)cc(O)c3c(=O)cc(-c4ccc(C(F)(F)F)cc4Cl)oc23)[C@@H]1CO`, “patients with adverse event” read 0% (item: Leukopenia; relapsed B-cell malignancies or AML; oral, 50 mg, grade 3-4, continuous dosing).
For `COc1ccc([C@@H](O)c2cc(-c3ncnc4cc(N5CCOCC5)ccc34)c(F)cc2Cl)nn1`, “gastrointestinal disorders incidence” read 4% (patients, advanced solid tumours; oral, 400 mg twice daily, treatment-emergent, added: avelumab).
Under “mRNA fold change”, `Clc1cc2c(cc1Cl)Oc1cc(Cl)c(Cl)cc1O2` is recorded as 27.2 fold (RNA-Seq, item: Cyp1a2; Sprague-Dawley rat, female, liver; 10 µg/kg; reference: vehicle).
For `CCc1ccc(CC/C=C/c2ccc3c(c2)C(=O)CC3)cc1`, the MCHC was 327 g/L (Sprague-Dawley rat, female; oral, 450 mg/kg/day, 14 days).
Under “grade 1 or 2 Hypertension”, `COc1cc2c(Oc3ccc4[nH]c(C)cc4c3F)ccnc2cc1OCC1(N)CC1` is recorded as 0% (paediatric recurrent refractory sarcoma; 8 mg).

A few entries again:
For `COc1ccc([C@@H](O)c2cc(-c3ncnc4cc(N5CCOCC5)ccc34)c(F)cc2Cl)nn1`, “gastrointestinal disorders incidence” read 4% (patients, advanced solid tumours; oral, 400 mg twice daily, treatment-emergent, added: avelumab).
Under “mRNA fold change”, `Clc1cc2c(cc1Cl)Oc1cc(Cl)c(Cl)cc1O2` is recorded as 27.2 fold (RNA-Seq, item: Cyp1a2; Sprague-Dawley rat, female, liver; 10 µg/kg; reference: vehicle).
